Assay results pooled from the literature.
A part holds a random share of what one study measured.

Sample 1
Target: Phosphate system positive regulatory protein PHO4, full length, GST-tagged (PHO4, Saccharomyces cerevisiae, UniProt P07270, residues 1-312)
Technique: competition protein-binding microarray
Molecule type: double-stranded DNA, one strand shown
Matrix: in vitro
Concentration: 2 µM
Setting: whole 60-bp probe, lowest competitor level
Added: Cbf1 competitor, 0.05 µM
Direction: higher = stronger binding
Measurement: fluorescence intensity
Constant ends, left off below: … GTCTTGATTCGCTTGACGCTGCTG
Residues (chain): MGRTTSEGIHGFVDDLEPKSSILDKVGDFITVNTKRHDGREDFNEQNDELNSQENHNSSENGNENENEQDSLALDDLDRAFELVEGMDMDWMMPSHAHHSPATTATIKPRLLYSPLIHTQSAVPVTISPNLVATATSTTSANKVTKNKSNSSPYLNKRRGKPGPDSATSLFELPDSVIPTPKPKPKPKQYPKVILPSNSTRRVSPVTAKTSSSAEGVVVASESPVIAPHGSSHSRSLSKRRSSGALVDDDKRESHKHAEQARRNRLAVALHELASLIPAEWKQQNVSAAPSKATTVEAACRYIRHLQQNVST
Oligonucleotide = TGCGCAACAACTTGGCAGGTGGGTGTATGTCTAGAA; result = 6360 a.u.
Oligonucleotide = TAATTCCAGGTTGAGCGCGTGGCCGCCTATAATCCA; result = 10300 a.u.
Oligonucleotide = GGTTTGGGTCTTGTTCTCGTGGAGGATCCTTTTGGT; result = 6130 a.u.
Oligonucleotide = TTATCATATACGGTGTTAGAAGATGACGCAAATGAT; result = 4730 a.u.
Oligonucleotide = AAAGCGGTAATTTGCAATGTGGGTGCAGATATCTAT; result = 6170 a.u.
Oligonucleotide = CGGGGTTAAGTTTGCTCGGTGGGTGGCTTGCAGCAG; result = 4810 a.u.
Oligonucleotide = AAATTACTAAGTTGTCGCGTGGGTGACGCCGTATGA; result = 9710 a.u.
Oligonucleotide = CTGGAGCTGTTTCCAAACGTGGCCGGGCAATTGAGC; result = 9380 a.u.
Oligonucleotide = TAGGGGCACTCTAACCTCGTGTAACGCGTAACCTTC; result = 9350 a.u.
Oligonucleotide = GATTTACAGGCCTGGCACGGCGATTGGCCATTACCT; result = 3970 a.u.
Oligonucleotide = GAGCGCCATTGTACCCACGTGTAACTGGGGCGAAGG; result = 17100 a.u.
Oligonucleotide = CCAACAAACGGAACACACGTGCGGAAGTTTCAAAGG; result = 17700 a.u.
Oligonucleotide = TTGCTTTGCAGCGACCACGTGGAACACTTGTCTAGT; result = 19400 a.u.
Oligonucleotide = CCGGCGCGGTCGTACATCGTGACGGTCCTGCGCTGG; result = 6640 a.u.
Oligonucleotide = CATACCCAACCTTGTCACTGCACTTAAGATATTTGT; result = 4080 a.u.
Oligonucleotide = AAAGCGGTAATTTGTTTGGTGGGTGCAGATATCTAT; result = 4240 a.u.
Oligonucleotide = GAAGATGACTGCTTCCTCGTGTTGATCCATTATTTT; result = 9830 a.u.
Oligonucleotide = ATCCTGAGAAGTTAGCATGTGCTATCGTTGAAGCCA; result = 13400 a.u.
Oligonucleotide = CATACCCAACCTTTCCACGTGTTTTAAGATATTTGT; result = 18900 a.u.

Sample 2
Target: Prothrombin, mature alpha-thrombin (F2, Homo sapiens, UniProt P00734)
Technique: aptamer microarray, sandwich
Molecule type: DNA with 2'F-ANA
Matrix: in vitro
Concentration: 200 nM
Setting: whole 15-mer aptamer, many near background
Added: Cy3 exosite-II aptamer, 400 nM
Direction: higher = stronger binding
Measurement: mean fluorescence intensity
Oligonucleotide: GGTTGGTGTGGTTGG
Modification = 2'F-ANA at 1 5 6 7 8 9 10 12 13 15; result = 49.9 a.u.
Modification = 2'F-ANA at 5 6 8 11 12 13 14; result = 49.2 a.u.
Modification = 2'F-ANA at 1 3 4 5 6 11; result = 54.9 a.u.
Modification = 2'F-ANA at 1 5 8 9 10 11 12; result = 45.7 a.u.
Modification = 2'F-ANA at 2 3 5 7 12 15; result = 227 a.u.
Modification = 2'F-ANA at 3 7 8 10 12; result = 727 a.u.
Modification = 2'F-ANA at 1 3 4 6 7 8 10 11 12; result = 89.3 a.u.
Modification = 2'F-ANA at 2 6 7 8 9 12 14; result = 179 a.u.
Modification = 2'F-ANA at 4 9 10 11 12 13; result = 98.4 a.u.
Modification = 2'F-ANA at 2 4 6 7 8 9 11 12 13 14 15; result = 83.6 a.u.
Modification = 2'F-ANA at 1 2 3 7 9 11 12 13 14 15; result = 83.9 a.u.
Modification = 2'F-ANA at 2 3 5 9 15; result = 103 a.u.
Modification = 2'F-ANA at 2 4 5 8 11 13; result = 51.7 a.u.
Modification = 2'F-ANA at 1 3 4 5 8 11 12 13 15; result = 74 a.u.
Modification = 2'F-ANA at 5 7 9 10 11 12 14; result = 46.5 a.u.
Modification = 2'F-ANA at 1 2 8 11 12 13 14 15; result = 66.7 a.u.
Modification = 2'F-ANA at 2 4 5 6 7 8 13; result = 68.3 a.u.
Modification = 2'F-ANA at 1 2 4 9 10 11 12 14; result = 54.6 a.u.
Modification = 2'F-ANA at 1 3 6 7 8 9 10 14 15; result = 59.4 a.u.
Modification = 2'F-ANA at 4 5 6 9 13 14; result = 40.4 a.u.
Modification = 2'F-ANA at 3 4 9 11 12 13; result = 703 a.u.
Modification = 2'F-ANA at 3 4 6 9 11 14 15; result = 232 a.u.

Sample 3
Target: RING finger protein unkempt homolog, zinc fingers 1-6, SBP tag (UNK, Homo sapiens, UniProt Q9C0B0, residues 30-357)
UniProt Q9C0B0, sequence (30-357, looked up): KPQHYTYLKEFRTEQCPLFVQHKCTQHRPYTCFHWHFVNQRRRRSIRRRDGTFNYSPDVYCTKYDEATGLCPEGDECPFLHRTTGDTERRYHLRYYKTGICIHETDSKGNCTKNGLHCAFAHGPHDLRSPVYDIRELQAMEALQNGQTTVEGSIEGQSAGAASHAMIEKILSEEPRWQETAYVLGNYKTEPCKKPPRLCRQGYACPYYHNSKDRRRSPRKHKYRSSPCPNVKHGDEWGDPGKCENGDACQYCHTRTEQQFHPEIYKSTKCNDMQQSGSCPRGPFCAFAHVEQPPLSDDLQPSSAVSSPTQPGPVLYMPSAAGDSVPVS
Technique: RNA Bind-n-Seq
Molecule type: RNA
Matrix: in vitro
Concentration: 100 nM
Setting: RNA with constant flanks, vertebrate orthologous sites, ends assumed
Relative to: input RNA pool
Direction: higher = stronger binding
Measurement: bound/input enrichment
Constant ends, left off below: GGGAGUUCUACAGUCCGACGAUC … CAACAGAGGAUUGAGCAUCA
Oligonucleotide = AAGGAGCAGCUUAGGCUGCUUGAGCUUUGGGGAAAUGAGCUUUUGCUUUUUGUAUUUAAAUAGGAUACUUUUAUAUGAUGGGUGCUUUUGAGUGACUGCAGCAGGCUCUAUUUCAGAGGU; result = 0.811 ratio
Oligonucleotide = UCAGUCAUGGAGAAAAAUAUAUUAAAAUAAUUCAUGGCACUGAUGUUAAUUCUAGUCUAUUGGUUUUAUAAAAGUUAGGGUUCUUAUUUAGGAACAACAGGAAGUGACUGUUAAAGAGAA; result = 0.983 ratio
Oligonucleotide = UGCAUUAUUUGACCAGAGUUGAGGUGACAGAAUUUGAAGACAUCAAAUCAGGUUACAGAAUAGAUUUUUAUUUUGAUGAGAAUCCGUACUUUGAAAAUAAAGUUCUCUCCAAAGAGUUUC; result = 0.65 ratio
Oligonucleotide = AUAUUGUAUGUAGAGAAAAAUUUUCAUUGACCCUAUUGUGAAAUUCCCUAGCAAUUUAUUUAGAAUCUUAAUUUUUCUAAUUCAAGCUCACUGUAUUAGUCAUUUUUAGCCCAUAAUUAA; result = 3.59 ratio
Oligonucleotide = GAAGAGCUGAGUAGAGUAAGGCUGCGUUUACUUAGAGCGUUUUUCCUUGUUUUUAGUUUGCUAGGGGUUGGGUGGGUUGUGGCGCACACCUUCUCUGAGGCAGGAGCUGUAGUGAUACCA; result = 3.7 ratio
Oligonucleotide = ACACUUAUAUUGUGGCAUAUAGUCAACAUGGAAGUAGACCAGGUCUGCUGAUUUGAAAUUUAGAUUUUUUUAAUUAUGUACUGGGGACAGGUUUUUGUCGCUUUACAUUGCUUCCUAGUU; result = 4.29 ratio
Oligonucleotide = AUUCAAACCUGUGGUACCAUGGCCUCAUGUUGAAGGAGUAGAAGUGGACUUAGAGUCUAUUAGAAGAAAAAACAAGGCCAAAAAUGAACAAGAGCGCCAUGCUGGAGGAGAUAACCAGAA; result = 0.36 ratio
Oligonucleotide = AGAAGUUUAACCAGGAUUGAUCAUAAUUUCUGAGUUCUCACUGUAUUUUCAAAAGAGGAUUAGAUAGAUGAUCUUUUUUAAAAUAAAGUUCACAUUUUAUAUUUGAAUUAUUGGCUUUUU; result = 0.248 ratio

Sample 4
Target: RNA binding protein fox-1 homolog 2, RRM domain, GST-SBP tag (RBFOX2, Homo sapiens, UniProt O43251-10, residues 100-194)
Technique: RNA Bind-n-Seq
Molecule type: RNA
Matrix: in vitro
Concentration: 365 nM
Setting: natural RNA segment, single round, ends assumed
Relative to: no-protein control
Direction: higher = stronger binding
Measurement: RBNS enrichment (R)
Constant ends, left off below: GGGAGUUCUACAGUCCGACGAUC … UGGAAUUCUCGGGUGCCAA
Target sequence (chain): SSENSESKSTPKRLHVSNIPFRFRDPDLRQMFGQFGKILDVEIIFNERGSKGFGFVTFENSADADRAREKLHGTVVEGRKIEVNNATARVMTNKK
Oligonucleotide = CAGAUCCCGAAUCUAGAUUCCCAGUUCUAAGGCCUUAUCACCUCCCCUGCCCAUAGGCCAACAACCAUAGUUCCUCACAUUAGUGAUUAGCAGACUCUUUGUGGACGAGU; result = 0.406
Oligonucleotide = CUGGGUAAUUUGAUGGAAUAUUUUACGUUUGAUUAAAUCAAAACAGUAAACACUCUCUUAGAUACUGUGUUGGAAGUAGUUAUUCUCCCAUAGUUUAAUGAAACUUGAAA; result = 0.589
Oligonucleotide = AGCUGUUUUUCUGCUCCUUUGUGGAAGGCAGUUAUGAUCAGGCUGCAUGGACAAAGCAGGUAGAGGGGCACCAUCAGGGGCUCUUGCACUAUUUUCACCUCUAAAUAUUA; result = 0.698
Oligonucleotide = CCUCCUAGGGUCACAGUCGGUCAGCUUGGCUGCUCCAUUCUUUCAUAGGCAGGAUUCCUAAUUCCUGCCACUCCCCCUAAGAGCAGGACUUCCCUAUGCCAGCACAUGUG; result = 0.322
Oligonucleotide = AUUUAUUUAUUGAAGAUGUCCCCCAGGGGCCCAGGCUCCCCUGCCCGCCCCAAGCCCUGCCCCUCCUGUACAUAUAGCCCUUUCCCCACUCAGCUGUGGUGUCUCGUGGC; result = 0.614
Oligonucleotide = UCAGUACUACCAGCACUUUGCCAAAACUGUCAGAGGGACCCGUUUCUAGAGUGAGUCCCAGUUACAUCAAACAGUGACUUCCAGUUAUUCCCCAGUAAGUCUGAGUGGUU; result = 0.318
Oligonucleotide = UUAAAAAUGGACUUGCAAACUCAUAGUACCUGGCUGCACACGUCCUCGCCUCUGUUUGUCUGGCUCUAGAUACCUAAUUCUCAAUCUUCCUCCGCUCACCCCAUUGCUUG; result = 2
Oligonucleotide = UGACCCUGAGCUUCUGCCAGCCUGGAGGACCCGUGCUAAGUGGACCACGCCUUCCCGCUCGGCGGCAAAGGUGCUGACAUCUAUGUGCUAGGCUGCCUCAUCACGCCACU; result = 0.204

Some of these lines once more (sample 2):
Modification = 2'F-ANA at 1 3 4 6 7 8 10 11 12; result = 89.3 a.u.
Modification = 2'F-ANA at 2 6 7 8 9 12 14; result = 179 a.u.
Modification = 2'F-ANA at 4 9 10 11 12 13; result = 98.4 a.u.
Modification = 2'F-ANA at 2 4 6 7 8 9 11 12 13 14 15; result = 83.6 a.u.
Modification = 2'F-ANA at 1 2 3 7 9 11 12 13 14 15; result = 83.9 a.u.
Modification = 2'F-ANA at 2 3 5 9 15; result = 103 a.u.
Modification = 2'F-ANA at 2 4 5 8 11 13; result = 51.7 a.u.
Modification = 2'F-ANA at 1 3 4 5 8 11 12 13 15; result = 74 a.u.
